# Measurements collected from several papers.
# Lines come from different studies, so protocols differ.
SMILES,system,setting,absorption maximum [nm]
CCCCN1C(=O)c2cccc3c(NCCCCCCN4CCOCC4)ccc(c23)C1=O,water,pH 6.0,453
CCOC(=O)c1[nH]c(C)c(/C=C/c2c(I)c(C)c3n2[B-](F)(F)[N+]2=C(C)C(I)=C(C)C2=C3c2cc(OC)cc(OC)c2)c1C,THF,,611
CCn1cc(/C=C/c2sc3ccccc3[n+]2CC)c2ccccc21,MeOH,10 µM,475
COc1cc(OC)cc(C2=C3C(C)=C(I)C(/C=C/c4cccs4)=[N+]3[B-](F)(F)n3c(/C=C/c4cccs4)c(I)c(C)c32)c1,dichloromethane,,670
COc1cc(/C=C2\SC(=S)NC2=O)cc(OC)c1O,PBS,"phenolic form, without FAST",409
Cc1ccc(-c2ccc(-c3cc4sccc4o3)cn2)nc1,acetonitrile,zinc-free ligand,343
CCn1cc(/C=C/c2ccc3ccccc3[n+]2CC)c2ccccc21,PBS,10 µM,466
COCCOCCOCCOc1ccc(/C=C/c2c(I)c(C)c3n2[B-](F)(F)[N+]2=C(C)C(I)=C(C)C2=C3c2cc(OC)cc(OC)c2)cc1,dichloromethane,,597
COc1ccc(/C=C/c2ccc(-c3ccc(C)cn3)nc2)cc1,aqueous HEPES buffer,"pH 7.4, zinc(II) complex",368
